Published values collected from several papers.
Every numbered part comes from another study and shows a few of its results, in no order.

Block 1
Cell line: HaCaT
Concentration: 100 µM
Time: 60 h
For `CC1(C)C[C@@H]1C(=O)N/C(=C\CCCCSC[C@H](N)C(=O)O)C(=O)O`, the viability was 150%.
`O=C(NCCN1CCOCC1)c1ccc(Cl)cc1` gave a viability of 156%.
`CCOC(=O)[C@H](CCc1ccccc1)N[C@@H](C)C(=O)N1Cc2ccccc2C[C@H]1C(=O)O` has a viability of 134%.
With `CN1C2=CC(=O)/C(=N\NC(N)=O)C=C2CC1S(=O)(=O)O` (centres unmarked) the viability was 139%.
With `COC(=O)c1ccccc1O` the viability was 126%.

Block 2
Target: 5-hydroxytryptamine receptor 1A (HTR1A, Homo sapiens, UniProt P08908)
UniProt P08908, sequence (whole entry, looked up): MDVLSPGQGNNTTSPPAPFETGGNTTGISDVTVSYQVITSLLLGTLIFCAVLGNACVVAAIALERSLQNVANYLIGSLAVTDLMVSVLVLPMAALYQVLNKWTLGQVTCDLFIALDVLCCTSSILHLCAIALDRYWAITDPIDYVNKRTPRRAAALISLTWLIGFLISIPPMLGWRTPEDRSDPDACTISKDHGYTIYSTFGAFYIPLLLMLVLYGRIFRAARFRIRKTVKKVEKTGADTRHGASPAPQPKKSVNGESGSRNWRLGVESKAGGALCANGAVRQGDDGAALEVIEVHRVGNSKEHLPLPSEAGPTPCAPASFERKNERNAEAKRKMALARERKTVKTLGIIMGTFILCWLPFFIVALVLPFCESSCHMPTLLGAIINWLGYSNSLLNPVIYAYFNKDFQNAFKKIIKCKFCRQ
Effect on: ligand displacement
Method: radioligand
Concentration: 10 µM
With `CN(C)CC#Cc1ccc(OCCCc2sc(N3CCc4cccc(C(=O)Nc5nc6ccccc6s5)c4C3)nc2C(=O)O)c(F)c1` the inhibition was 5.18%.
`C[C@@H]1CN(c2cc(-c3nn(C)c4ccc(OC5(C)CC5)cc34)ncn2)C[C@H](C)O1` has an inhibition of 18.1%.
`O=S(=O)(NC1CCC(c2cc(F)ccc2F)(S(=O)(=O)c2ccc(Cl)cc2)CC1)C(F)(F)F` (centres unmarked) has an inhibition of 18.3%.
`CCc1ccccc1C(=O)Nc1n[nH]c2c(C)c(F)c(C3C(C#N)=C(C)N(C)C(C)=C3C#N)cc12` gave an inhibition of 5.2%.
The inhibition of `CCNC(=O)c1cc2c(N3CCOC[C@@H]3C)ccnc2[nH]1` is reported as 69.8%.
For `C[C@H](NC(=O)c1cnc2n1[C@](C)(Cc1ccc(C#N)cc1)C(=O)N2c1cc(Cl)c(F)c(Cl)c1)C(=O)NC1(c2ccccn2)CC1`, the inhibition was -9.74%.
`CCS(=O)(=O)c1cc2cc(C[C@@](O)(CC(C)(C)c3ccc(F)cc3C(N)=O)C(F)(F)F)[nH]c2cn1` gave an inhibition of -7.37%.
`Cc1cnc(-c2cc(Cl)ccc2F)cc1-n1c(=O)n(CC(N)=O)c2cnccc21` has an inhibition of 22.9%.
`Cc1ccc(-c2cnc([C@@]3(O)CC[C@H](C(=O)O)C(C)(C)C3)s2)cc1Nc1cccc(C(F)(F)F)n1` has an inhibition of 17.5%.
The inhibition of `O=C(NCc1ncc(C(F)(F)F)cc1Cl)c1ccc2c(c1)C1(CCS(=O)(=O)CC1)[C@@H](C1CC1)N2S(=O)(=O)c1ccc(F)cc1` is reported as -13.2%.
`CCC(=N\O)/C(C)=C/c1ccc(F)cc1` has an inhibition of 6.81%.
For `Cc1c[nH]c2nccc(Oc3c(F)cc(Nc4cc(Cl)nc(N)n4)cc3F)c12`, the inhibition was 11.7%.
`CN1CCN(C(=O)C(C)(C)c2ccc(C(=O)Nc3cn4cc(-c5ccncc5)ccc4n3)cc2)CC1` gave an inhibition of -11.7%.
`O=C(O)[C@@H]1[C@@H](Cn2nnc3ccccc3c2=O)CC[C@H]1C(=O)c1ccc(OCCC2CCOCC2)cc1` gave an inhibition of 7.62%.
For `O=C(c1ccc(F)cc1)N1CC(COc2ccc(Br)cc2)(C(=O)O)C1`, the inhibition was -18.1%.
For `O=C(O)c1cc(-c2ccc(C3CCNCC3)cc2)c2ccc(-c3ccc(C(F)(F)F)cc3)cc2c1`, the inhibition was 11.2%.
The inhibition of `O=C([C@H]1C[C@H](O)CN1c1ccc(Cl)cc1)N1CC2COCC(C1)N2Cc1ccc(Cl)cc1` is reported as -16%.
With `Cc1nc(Cc2cccc(C(F)(F)F)c2)sc1-c1ccc(C(N)=O)nc1` the inhibition was -2.04%.
`CC(=O)N1CCC(c2ccc(C(=O)NC(=N)N)cc2C(F)(F)F)CC1` has an inhibition of -5.21%.
`FC(F)(F)c1ccc2c(c1)nc(-c1cccnc1)n2C1CC1` has an inhibition of 0.44%.

Block 3
Organism: Sarcocystis neurona
Effect on: parasite growth
Concentration: 10 µM
Time: 96 h
Setting: first screen
The inhibition of `CC=CC(=O)N(CC)c1ccccc1C` (mixture of isomers) is reported as -9.9%.
For `OCCN1C[C@H](O)[C@@H](O)[C@H](O)[C@H]1CO`, the inhibition was -12.9%.
`O=c1[nH]cnc2c1ncn2[C@H]1CC[C@@H](CO)O1` has an inhibition of 6.3%.
For `CC(COc1ccccc1)NC(C)C(O)c1ccc(O)cc1` (centres unmarked), the inhibition was -2.4%.
`CCCCC(=O)O[C@]1(C(=O)CO)CC[C@H]2[C@@H]3CCC4=CC(=O)CC[C@]4(C)[C@H]3[C@@H](O)C[C@@]21C` has an inhibition of -2.1%.
With `Cc1ccsc1C(=CCCN1CCC[C@@H](C(=O)O)C1)c1sccc1C` the inhibition was -6%.

Block 4
Target: Beta-1 adrenergic receptor (ADRB1, Homo sapiens, UniProt P08588)
UniProt P08588, sequence (whole entry, looked up): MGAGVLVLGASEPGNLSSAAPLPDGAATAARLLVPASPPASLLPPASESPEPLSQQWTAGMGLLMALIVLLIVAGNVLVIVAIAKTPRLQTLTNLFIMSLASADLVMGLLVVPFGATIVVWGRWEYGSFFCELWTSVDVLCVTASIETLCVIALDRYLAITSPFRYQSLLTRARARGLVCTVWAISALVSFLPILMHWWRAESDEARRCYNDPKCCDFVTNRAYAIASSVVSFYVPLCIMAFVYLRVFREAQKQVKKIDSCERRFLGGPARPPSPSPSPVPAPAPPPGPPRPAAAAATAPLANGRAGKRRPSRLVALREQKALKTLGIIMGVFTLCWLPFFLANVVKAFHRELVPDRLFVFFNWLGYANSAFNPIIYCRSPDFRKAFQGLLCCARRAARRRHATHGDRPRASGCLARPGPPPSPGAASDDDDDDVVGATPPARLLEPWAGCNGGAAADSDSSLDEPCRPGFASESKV
Action: agonist
`COc1ccccc1N1CCN([C@H]2[C@@H]3OC[C@@H](O3)[C@@H](N(CC3CC3)CC3CC3)[C@@H]2O)CC1` has an EC50 of no less than 100 µM.
`CC(=O)Oc1ccc2c(c1)Oc1cc(OC(C)=O)ccc1C21OC(=O)c2ccccc21` gave an EC50 of no less than 100 µM.
`Cc1ccc(-c2nnc(-c3cc(-c4ccccc4)nc4ccccc34)o2)cc1` gave an EC50 of no less than 100 µM.
With `O=C(Nc1ccccc1)Nc1ccc([C@@H](O)[C@H]2COCC(=O)N2CC2CC2)cc1` the EC50 was no less than 100 µM.
With `Cc1nc(C2CC(O)C2)cc(N2CC(N3CCOCC3)C2)n1` (centres unmarked) the EC50 was no less than 100 µM.

Block 5
Target: Calcium/calmodulin-dependent protein kinase type II subunit alpha (CAMK2A, Homo sapiens, UniProt Q9UQM7)
UniProt Q9UQM7, sequence (whole entry, looked up): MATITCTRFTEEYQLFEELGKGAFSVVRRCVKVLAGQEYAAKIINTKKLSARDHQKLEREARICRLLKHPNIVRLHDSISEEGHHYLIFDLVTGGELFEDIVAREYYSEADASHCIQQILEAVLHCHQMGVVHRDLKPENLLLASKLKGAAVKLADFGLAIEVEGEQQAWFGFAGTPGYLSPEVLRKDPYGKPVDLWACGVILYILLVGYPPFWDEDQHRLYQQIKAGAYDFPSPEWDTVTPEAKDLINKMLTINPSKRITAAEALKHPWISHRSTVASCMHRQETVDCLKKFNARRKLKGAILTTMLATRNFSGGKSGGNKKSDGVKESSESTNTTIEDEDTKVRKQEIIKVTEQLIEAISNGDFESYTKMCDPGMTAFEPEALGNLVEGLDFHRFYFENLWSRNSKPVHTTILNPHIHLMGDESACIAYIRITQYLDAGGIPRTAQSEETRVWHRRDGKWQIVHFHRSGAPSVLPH
Effect on: enzyme activity
Action: inhibitor
Concentration: 10 µM
For `COc1ccc2cc1Oc1ccc(cc1)C[C@H]1c3cc(c(OC)cc3CCN1C)Oc1c(O)c(OC)cc3c1[C@H](C2)N(C)CC3`, the inhibition was -11%.
The inhibition of `CC(=O)OC/C=C(\C)CCC=C(C)C` is reported as -9%.
`CC(=O)Nc1ccc(OC(C)=O)cc1` gave an inhibition of -2%.
The inhibition of `NC(=O)NS(=O)(=O)c1ccc(N)cc1` is reported as -1%.
For `CC(C)=C[C@H]1C[C@](C)(O)[C@@H]2[C@H]3CC[C@@H]4[C@@]5(C)CC[C@H](O[C@@H]6OC[C@H](O)[C@H](O[C@@H]7O[C@H](CO)[C@@H](O)[C@H](O)[C@H]7O)[C@H]6O[C@@H]6O[C@@H](CO)[C@H](O)[C@H]6O)C(C)(C)[C@@H]5CC[C@@]4(C)[C@@]34CO[C@@]2(C4)O1`, the inhibition was -7%.
With `NC[C@H](O)c1ccc(O)c(O)c1` the inhibition was -13%.
The inhibition of `CC(C)(O)[C@H]1CC[C@@](C)([C@H]2[C@@H](O)C[C@@]3(C)[C@@H]4C[C@H](O)[C@H]5C(C)(C)[C@@H](O)CC[C@@]56C[C@@]46CC[C@]23C)O1` is reported as -18%.
`COc1cc(/C=C/c2ccc(O)c(O)c2)cc(OC)c1` gave an inhibition of 5%.

Repeated from above (block 1):
For `CC1(C)C[C@@H]1C(=O)N/C(=C\CCCCSC[C@H](N)C(=O)O)C(=O)O`, the viability was 150%.
`O=C(NCCN1CCOCC1)c1ccc(Cl)cc1` gave a viability of 156%.
`CCOC(=O)[C@H](CCc1ccccc1)N[C@@H](C)C(=O)N1Cc2ccccc2C[C@H]1C(=O)O` has a viability of 134%.
With `CN1C2=CC(=O)/C(=N\NC(N)=O)C=C2CC1S(=O)(=O)O` (centres unmarked) the viability was 139%.
With `COC(=O)c1ccccc1O` the viability was 126%.
